Measured values collected from several papers.
Parts stem from different laboratories: compare values within a part only. Substitutions count along the parent as printed.

Study 1
Target: Prothrombin, mature alpha-thrombin (F2, Homo sapiens, UniProt P00734)
Method: aptamer microarray, sandwich
Molecule type: DNA with 2'F-ANA
Medium: in vitro
Concentration: 200 nM
Setting: whole 15-mer aptamer, many near background
Together with: Cy3 exosite-II aptamer, 400 nM
Reading: higher = stronger binding
Endpoint: mean fluorescence intensity
Strand: GGTTGGTGTGGTTGG
2'F-ANA at 7 8 9 10 12 13: 243 a.u.
2'F-ANA at 2 3 7 8 10 11 13 14 15: 298 a.u.
2'F-ANA at 1 3 4 5 7 14: 46.7 a.u.
2'F-ANA at 2 3 5 6 7 8 9 14: 52.7 a.u.
2'F-ANA at 1 3 4 5 7 8 10 12 13 14: 54.4 a.u.
2'F-ANA at 1 3 7 10 11 14: 55.5 a.u.
2'F-ANA at 1 4 5 6 7 9 11 14 15: 50.4 a.u.
2'F-ANA at 2 3 4 7 8 9 10 11 13: 214 a.u.

Study 2
Target: CCND3, cyclin fold, Cln2 fusion (human)
Method: yeast growth competition, sequencing
Medium: yeast
Setting: weak parent motif
Relative to: not given
Reading: higher = stronger binding
Endpoint: normalised enrichment score
Starting sequence: RBL1 docking peptide (human); GSAKRRLFGEDPP
GSQKRRLFGEDPP [A3Q]: 0.132
VSAKRRLFGEDPP [G1V]: 0.193
GSAKRRLFGEDEP [P12E]: 0.191
GSADRRLFGEDPP [K4D]: 0.0538
GSAKRRLFGEDPQ [P13Q]: 0.0865
GSAKRRCFGEDPP [L7C]: 0.152
GSAKRRLFLEDPP [G9L]: 0.108
GSAQRRLFGEDPP [K4Q]: 0.0891

Study 3
Target: Sal-like protein 4, full length isoform B (SALL4, Homo sapiens, UniProt Q9UJQ4-2, residues 1-616)
Method: universal PBM
Molecule type: double-stranded DNA, one strand shown
Medium: in vitro
Concentration: not given
Setting: 8-mer, flanks averaged, mean of replicates
Reading: higher = stronger binding
Endpoint: E-score
TGAGCTAA: 0.0685
GTAGTTGA: 0.0418
CCCTCACA: -0.091
CATGGAGC: -0.188
CCTTAACG: -0.0919
ATTACTAC: 0.25
AGGTCTGA: -0.0748
ACCACTAA: 0.0199
TAGATGGA: 0.0554
CACTATCA: 0.0959
CGACATAG: -0.00678
AACGCTCA: -0.143
AGTGAGCG: -0.109
CAAGTGTG: 0.137

Mixed results
PhoQ, residues 284 288 289 292 302 303 TLMATV
fold induction (PhoP, residues 12 14 15 18 19 NMSSL (Escherichia coli, UniProt P23836); Sort-seq, refers to: YFP reporter; E. coli; PhoQ-PhoP variant library, together with: 10 µM Mg2+; relative to: high Mg2+ state, higher = stronger signaling): 49.1
